Measurements collected from several papers.
Each line is one published result; not all experiments were run side by side. ± gives the spread as reported.

N#Cc1ccc([C@H]2COC[C@@H](c3ccc(CN4CCOCC4)cc3)N2)cc1 has a solubility of greater than 750 µM (shake-flask, LC-HRMS; aqueous buffer; 16 h, pH 6.8).
With O=C(Nc1ccc(OC(F)(F)F)cc1)N[C@H]1CC[C@H](Oc2ccc(C(=O)O)cc2)CC1 the solubility was 0.0398 ± 0.0001 µg/mL (deionised water; 0.5 min, pH 6.6, 37 °C, non-sink dissolution).
With CC(C)(C)c1ccc([C@H]2COC[C@@H](c3ccc(F)cc3)N2)cc1 the solubility was less than 4 µM (shake-flask, LC-HRMS; aqueous buffer; 16 h, pH 6.8).
With O=C(Nc1ccc2[nH]ccc2c1)c1ccccc1Cl the solubility was no less than 300 µM (kinetic solubility; PBS with NaCl, SDS, ThT; pH 7.4).
FC(F)(F)c1ccc([C@H]2COC[C@@H](C3CCCCC3)N2)cc1 gave a solubility of less than 4 µM (shake-flask, LC-HRMS; aqueous buffer; 16 h, pH 6.8).
The solubility of COC(=O)c1ccccc1Oc1nc(NC(C)C)nc(NC(C)C)n1 is reported as less than 1.48 µg/mL (aqueous buffer; pH 7.4).
For COc1ccc2cc(C(=O)Nc3ccc4c(c3)CN(C3CCC(=O)NC3=O)C4=O)ccc2c1 (stereo not shown), the solubility was no more than 30000 µM (DMSO).
With CC(C)Nc1ccnc(Nc2cccc(-c3cc[nH]n3)c2)n1 the solubility was 66.7 ± 2 µM (citrate phosphate-buffered saline; 18 h, pH 7.4, 1% DMSO).
For CCOC(=O)N1C[C@@H]([C@H]2CCOC2)N[C@@H](C2CCOCC2)C1, the solubility was greater than 750 µM (shake-flask, LC-HRMS; aqueous buffer; 16 h, pH 6.8).
COc1cc([N+](=O)[O-])ccc1NC(=O)CN1CCOCC1 gave a solubility of 4.66 µg/mL (aqueous buffer; pH 7.4).
With c1ccc(CSc2ncnc3nc[nH]c23)cc1 the solubility was 50 µM (UV absorbance; culture medium; stock diluted to 0.05 mM).
N=C(N)NCCNC(=O)C1(Nc2ccccc2)CCN(Cc2ccccc2)CC1 gave a solubility of no more than 16000 µg/mL (water; hydrochloride salt).
The solubility of O=[N+]([O-])c1ccc(Nc2ccnc3ccc(-c4ccc(S(=O)(=O)N5CCOCC5)cc4)cc23)cn1 is reported as 4 µM (thermodynamic; aqueous medium).
The solubility of CN(Cc1ccc(C2(C(F)(F)F)CC2)cc1)Cc1cccc2ccccc12.Cl is reported as 4 µM (PBS; pH 7.4, 25 °C, 2% DMSO).
With COc1ccc(NC(=O)c2ccco2)cc1NC(=O)c1cccnc1 the solubility was less than 2.41 µg/mL (aqueous buffer; pH 7.4).
The solubility of Cn1cc([C@@H]2COC[C@H](c3ccc(C#N)cc3)N2)cn1 is reported as greater than 750 µM (shake-flask, LC-HRMS; aqueous buffer; 16 h, pH 6.8).
COc1cc(-c2nnc(SCC(N)=O)n2C)cc(OC)c1OC gave a solubility of greater than 3760 µg/mL (aqueous buffer; pH 7.4).
For CCOC1=CC(c2ccc[nH]2)=N/C1=C\c1cc(Cc2ccc(OC(F)(F)F)cc2)c(C)[nH]1.Cl, the solubility was 13.7 µM (potassium phosphate buffer; 1.5 h, pH 7.4, room temperature).
The solubility of COc1ccc(-c2nnc(SCC(=O)Nc3c(F)cc(F)cc3Br)n2C)cc1 is reported as less than 3.35 µg/mL (aqueous buffer; pH 7.4).
N=C(CCl)NCCC[C@H](NC(=O)c1ccc2ccc(O)cc2c1)C(=O)NCc1ccccc1 gave a solubility of greater than 20000 µg/mL (water).
CCOC(=O)N1C[C@@H](C2CC2)N[C@@H](c2cccc(OC)c2)C1 gave a solubility of greater than 750 µM (shake-flask, LC-HRMS; aqueous buffer; 16 h, pH 6.8).
With COc1cc(OC)c2c(=O)c(OC)c(-c3ccc(OC)c(OC)c3)oc2c1 the solubility was 12050 ± 79 ppm (HPLC; ethanol:butylene glycol 0:100).
For CCOC(=O)N1C[C@@H](c2cnn(C)c2)N[C@@H](c2cccc(Br)c2)C1, the solubility was greater than 750 µM (shake-flask, LC-HRMS; aqueous buffer; 16 h, pH 6.8).
Cc1cc(C)c(S(=O)(=O)NCc2ccccn2)cc1C has a solubility of 15.7 µg/mL (aqueous buffer; pH 7.4).
The solubility of O=C(NCCN1CCCC1)c1cc(-c2ccc(CN3CCOCC3)cc2)nc2ccc(F)cc12 is reported as 346 ± 19 µM (water; 4 h, pH 5.6, 37 °C).

For quick reference, copied from above:
N=C(N)NCCNC(=O)C1(Nc2ccccc2)CCN(Cc2ccccc2)CC1 gave a solubility of no more than 16000 µg/mL (water; hydrochloride salt).
With COc1ccc(NC(=O)c2ccco2)cc1NC(=O)c1cccnc1 the solubility was less than 2.41 µg/mL (aqueous buffer; pH 7.4).
